# Experimental data from different studies.
# Each line is one published result; not all experiments were run side by side. Numbers after ± are the reported error.
# Organism: Staphylococcus epidermidis
SMILES,assay,test system,setting,how to read,quantity,value
O=c1n(CCNCCOS(=O)(=O)c2ccccc2)c(=O)n(S(=O)(=O)c2ccccc2)c(=O)n1S(=O)(=O)c1ccccc1,broth microdilution,,,,MLC,4 ± 1 µg/mL
C[C@@H]1NC(=O)[C@H](C)NC(=O)[C@@H](NC(=O)[C@@H]2CCCN2C(=O)[C@H](CC(N)=O)NC(=O)[C@H](Cc2ccc(O)cc2)NC(=O)[C@@H](N)Cc2cccc(CN)c2)CSC(=O)[C@H](Cc2cccc(F)c2)NC(=O)[C@H](Cc2ccc(O)cc2)NC1=O,safranin staining,RP62A,"10 µM, 37 °C",baseline: DMSO control,biofilm dispersal,30.8%
Oc1c(Br)cc(Br)c2nc3ccc(C(F)(F)F)cc3nc12,Calgary biofilm device,MRSE 35984,,,MBEC,150 µM
CC[C@H](C)[C@H](NC(=O)[C@H](CCCCN)NC(=O)[C@H](CCCCN)NC(=O)[C@H](Cc1ccccc1)NC(=O)[C@H](Cc1ccccc1)NC(=O)[C@H](CCCCN)NC(=O)[C@H](CCCCN)NC(=O)[C@H](Cc1ccccc1)NC(=O)[C@H](CCCNC(=N)N)NC(=O)[C@@H](N)CCCCN)C(=O)N[C@@H](CCCCN)C(=O)N[C@@H](CCCCN)C(=O)N[C@@H](CO)C(=O)N[C@H](C(=O)N[C@@H](CCCCN)C(=O)N[C@@H](CCCCN)C(=O)N[C@@H](CCCNC(=N)N)C(=O)N[C@H](C(=O)N[C@@H](CCCCN)C(=O)N[C@@H](CCCCN)C(=O)N[C@@H](CC(C)C)C(=O)N[C@@H](Cc1ccccc1)C(=O)N[C@@H](CCCCN)C(=O)N[C@@H](CCCCN)C(=O)N1CCC[C@H]1C(=O)N[C@@H](CCCNC(=N)N)C(=O)N[C@H](C(=O)N[C@H](C(=O)N1CCC[C@H]1C(=O)N[C@H](C(=O)N[C@@H](CO)C(=O)N[C@H](C(=O)N1CCC[C@H]1C(=O)N[C@@H](Cc1ccccc1)C(=O)O)[C@@H](C)CC)[C@@H](C)CC)[C@@H](C)CC)C(C)C)C(C)C)C(C)C,,clinical isolate,"20 h, 37 °C",,MBC,8 µg/mL
Oc1c(Br)cc(Br)c2nc3cc(F)c(F)cc3nc12,Calgary biofilm device,MRSE 35984,,,MBEC,25 µM
CC1COC2=C1C(=O)C(=O)c1c2ccc2c1C(OC(=O)CNC(=O)C(N)CO)CCC2(C)C (mixture of isomers),,,"10 µmol/mL, 48 h, 10 µL on 6 mm disc",,inhibition zone diameter,22.7 ± 1.3 mm
CC(C)[C@H](NC(=O)[C@H](CO)NC(=O)[C@@H](N)CC(=O)O)C(=O)N[C@H]1CSC(=O)[C@H](Cc2ccccc2)NC(=O)[C@H](Cc2ccc(O)cc2)NC(=O)[C@H](CO)NC(=O)[C@H](C)NC1=O,safranin staining,RP62A,"10 µM, 24 h, 37 °C",baseline: DMSO control,biofilm inhibition,51%
O=CCNCCOn1c(=O)n(OCCNCCO)c(=O)n(OCCNCCOn2c(=O)n(OCCNCCO)c(=O)n(OCCNCCO)c2=O)c1=O,broth microdilution,,,,MLC,4 ± 1 µg/mL
C[C@@H]1NC(=O)[C@H](C)NC(=O)[C@@H](NC(=O)[C@@H]2CCCN2C(=O)[C@H](CC(N)=O)NC(=O)[C@H](Cc2ccc(O)cc2)NC(=O)[C@@H](N)CCCCN)CSC(=O)[C@H](Cc2ccccc2)NC(=O)[C@H](Cc2ccc(O)cc2)NC1=O,safranin staining,RP62A,"10 µM, 24 h, 37 °C",baseline: DMSO control,biofilm inhibition,18.2%
CC1COC2=C1C(=O)C(=O)c1c2ccc2c1C(OC(=O)CNC(=O)CN)CCC2(C)C (mixture of isomers),,,"10 µmol/mL, 48 h, 10 µL on 6 mm disc",,inhibition zone diameter,19.8 ± 1 mm

# Some of these lines once more:
SMILES,assay,test system,setting,how to read,quantity,value
C[C@@H]1NC(=O)[C@H](C)NC(=O)[C@@H](NC(=O)[C@@H]2CCCN2C(=O)[C@H](CC(N)=O)NC(=O)[C@H](Cc2ccc(O)cc2)NC(=O)[C@@H](N)CCCCN)CSC(=O)[C@H](Cc2ccccc2)NC(=O)[C@H](Cc2ccc(O)cc2)NC1=O,safranin staining,RP62A,"10 µM, 24 h, 37 °C",baseline: DMSO control,biofilm inhibition,18.2%
